Published values pooled from the literature.
Compare with care: the assays were run in different laboratories. ± marks the error that the study gave.

Structure (SMILES) | assay | test system | setting | scale | measurement | value
Clc1ccc(-c2ccccc2)cc1 |  | rat Sprague-Dawley female, serum | inhalation, 23 µg/rat, 2 h |  | serum CO2 | 17 ± 4 mmol/L
CCC(CC)(NC(=O)c1ccc(N2CC(OC)C2)c(OC[C@H]2C[C@@H]2CO)n1)C(=O)NCCOCCOCCNC(=O)c1ccc2c(c1)C1(OC2=O)c2ccc(N(C)C)cc2[Si](C)(C)c2cc(N(C)C)ccc21 |  | PBS | 100 nM, pH 7.4, 0.1% DMSO |  | fluorescence quantum yield | 10.5%
CC1(C)[C@H](C=C(Cl)Cl)[C@H]1C(=O)OCc1cccc(Oc2ccccc2)c1 | measured: CYP2C9 | human, age 1 year, recombinant human CYP2C9 | 0.1 µM |  | enzyme contribution to clearance | 0.88%
Clc1ccc(-c2ccc(Cl)c(Cl)c2)cc1Cl |  | fresh water | 20 °C, S30-1 sampler, 30 µm |  | log K(PDMS-water) | 5.53 ± 0.06
O=C(Nc1ccccc1)C1CCN(C(=O)Oc2cccnc2)CC1 | psychotropic effects VAS | healthy women | 60 mg | reference: pre-dose baseline, direction not given | change in Surroundings score | 0.1
NC(=O)[C@H]1CCN(c2ncnc(N)c2F)C[C@@H]1N1CCC[C@@H](Nc2cc(Cl)cc(C(F)(F)F)c2)C1=O |  | B-cell malignancy patients | oral, 20.5 mg twice daily, dose |  | grade ≥3 platelet decrease | 33%
CCOc1cc(Oc2ccc(C(F)(F)F)cc2Cl)ccc1[N+](=O)[O-] |  | rat male | 3.25 mg/kg, 8 days |  | body weight gain | 67%
CC(C)C[C@@H]1NC(=O)[C@H](CCCCN)NC(=O)[C@H](CC(N)=O)NC(=O)[C@H](CCCNC(=N)N)NC(=O)[C@H]([C@@H](C)O)NC(=O)[C@@H]2CSSC[C@@H]3NC(=O)[C@H]([C@@H](C)O)NC(=O)CNC(=O)CNC(=O)[C@H](C(C)C)NC(=O)[C@@H]4CSSC[C@H](NC(=O)[C@H]([C@@H](C)O)NC(=O)[C@H](CSSC[C@H](NC(=O)[C@H](C(C)C)NC(=O)[C@@H]5CCCN5C1=O)C(=O)NCC(=O)N[C@@H](CCC(=O)O)C(=O)N[C@@H]([C@@H](C)O)C(=O)N4)NC(=O)CNC(=O)[C@@H]1CCCN1C(=O)[C@H]([C@@H](C)O)NC(=O)[C@H](CC(N)=O)NC3=O)C(=O)N[C@@H](CO)C(=O)N[C@@H](Cc1c[nH]c3ccccc13)C(=O)N1CCC[C@H]1C(=O)N[C@@H](C(C)C)C(=O)N2 | HPLC | water | 180 µM, 14 days, 37 °C, deamidation stability |  | remaining peptide | 98.8 ± 0.2%
COc1ncccc1-c1cnn2ccc(N3CCN(C(=O)OC(C)C)CC3)nc12 |  | rat, thermal hyperalgesia model, plasma | oral, 10 mg/kg, 180 min |  | free drug concentration | 21 nM
COc1ccc(C[C@@H]2NC(=O)[C@H]([C@@H](C)O)NC(=O)[C@@H]3[C@@H]4CCN3C(=O)[C@@H]3Cc5cn(c6ccc(F)cc56)CCCCCCN(Cc5ccc(cc5)CCNC(=O)[C@]5(C)CCCN5C2=O)C(=O)CCC(=O)N[C@@H](C)C(=O)N[C@H](CNC(=O)CCCCC[N+](C)(C)C)C(=O)N[C@@H](Cc2cccc(c2)CNC(=O)CO4)C(=O)N3)cc1 | measured: Nausea | humans | concentration not given, Study-003 |  | participants with adverse event | 3.2%
COc1cccc2c1CCCC2CCCN1CCN(C2CCCCC2)CC1 (stereo not drawn) |  | CD-1 mouse, male, lung | intraperitoneal, 30 mg/kg |  | Tmax | 5 min
O=C1Nc2cc3[nH]nc(-c4ccncc4)c3cc2CN1Cc1ccccc1 | measured: subretinal fluid | patients with advanced solid tumours | intravenous, dose not given |  | patients with TEAE | 22%
CO[C@H]1C[C@@H]2CC[C@@H](C)[C@@](O)(O2)C(=O)C(=O)N2CCCC[C@H]2C(=O)O[C@H]([C@H](C)C[C@@H]2CC[C@@H](OC(=O)NCCOCCOCCOCCOCCOCCOCCOCCOCCC(=O)N3CCc4cc(Cn5nc(-c6ccc7oc(N)nc7c6)c6c(N)ncnc65)ccc4C3)[C@H](OC)C2)C[C@@H](O)[C@H](C)/C=C(\C)[C@@H](O)[C@@H](OC)C(=O)[C@H](C)C[C@H](C)/C=C/C=C/C=C/1C |  | patients with advanced solid tumours | intravenous, 10 mg weekly, grade 3 or higher |  | AE leading to dose interruption | 50%
Clc1ccc(Cl)c(-c2cc(Cl)ccc2Cl)c1 |  | Sprague Dawley rat | intraperitoneal, 10 mg/kg, 3 weeks |  | body weight | 173 g
CNC(=O)c1cc(Oc2ccc(NC(=O)Nc3cc(C(C)(C)C)nn3-c3ccc4ncccc4c3)c(F)c2)ccn1 | left ventricular dysfunction, NCI CTC v3.0 | human patients | oral, 150 mg twice daily, tablet, dose at onset |  | related SAE | 3%
CC[C@H](C)[C@H](NC(=O)[C@H](Cc1ccccc1)NC(=O)[C@H](CCC(=O)O)NC(=O)[C@H](CCCNC(=N)N)NC(=O)[C@H](C)NC(=O)[C@H](C)NC(=O)[C@H](CCC(N)=O)NC(=O)[C@H](CCC(=O)O)NC(=O)[C@H](CCC(=O)O)NC(=O)[C@H](CC(C)C)NC(=O)[C@H](Cc1ccc(O)cc1)NC(=O)[C@H](CO)NC(=O)[C@H](CO)NC(=O)[C@@H](NC(=O)[C@H](CC(=O)O)NC(=O)[C@H](CO)NC(=O)[C@@H](NC(=O)[C@H](Cc1ccccc1)NC(=O)[C@@H](NC(=O)CNC(=O)[C@H](CCC(=O)O)NC(=O)[C@H](C)NC(=O)CCc1cnc[nH]1)[C@@H](C)O)[C@@H](C)O)C(C)C)C(=O)N[C@@H](C)C(=O)N[C@@H](Cc1c[nH]c2ccccc12)C(=O)N[C@@H](CC(C)C)C(=O)N[C@H](C(=O)N[C@@H](CCCNC(=N)N)C(=O)NCC(=O)N[C@@H](CCCNC(=N)N)C(=O)N[C@@H](CCCCNC(=O)COCCOCCNC(=O)COCCOCCNC(=O)CC[C@H](NC(=O)CCCCCCCCCCCCCCCCC(=O)O)C(=O)O)C(=O)NCC(=O)NCC(=O)N[C@@H](CO)C(=O)N[C@@H](CCCCNC(=O)[C@H](CCCCNc1c(NCCCCCN(O)C(=O)CCC(=O)NCCCCCN(O)C(=O)CCC(=O)NCCCCCN(O)C(C)=O)c(=O)c1=O)Nc1c(NCCCCCN(O)C(=O)CCC(=O)NCCCCCN(O)C(=O)CCC(=O)NCCCCCN(O)C(C)=O)c(=O)c1=O)C(=O)O)C(C)C [zirconium-89 labelled] | ex vivo gamma counting | male Sprague-Dawley rats, pancreas | intravenous, 1 nmol, 24 h |  | tissue uptake | 0.287 %ID/g
Cn1cncc1-c1c(F)cncc1NC(=O)c1c(N)nn2cc(F)cnc12 |  | human patients | oral, up to 40 mg once daily |  | patients grade ≥3 Hyperkalemia | 0%
Clc1ccc(-c2cc(Cl)c(Cl)c(Cl)c2)c(Cl)c1 |  | PDMS-water partitioning | PCB compilation | reference: maximum over minimum K | literature range factor | 1.2
O=C(O)CCCOc1ccc(F)cc1-c1cc(-c2ccccc2C(F)(F)F)n(-c2ccccc2)n1 | measured: Monocytes | Crl:CD(SD) rats, female, blood | iv, 25 µg/kg, 1 day |  | leukocyte differential | 2 ± 0.5%
CCCCCOc1ccc(-c2ccc(-c3ccc(C(=O)N[C@H]4C[C@@H](O)[C@@H](O)NC(=O)[C@@H]5[C@@H](O)[C@@H](C)CN5C(=O)[C@H]([C@@H](C)O)NC(=O)[C@H]([C@H](O)[C@@H](O)c5ccc(O)cc5)NC(=O)[C@@H]5C[C@@H](O)CN5C(=O)[C@H]([C@@H](C)O)NC4=O)cc3)cc2)cc1 |  | human, morbidly obese, plasma | intravenous, 100 mg single dose, BMI above 40 kg/m2 |  | volume of distribution | 47.2 ± 5.9 L
O=S(=O)(Nc1ccccc1)c1ccc(NC(=S)Nc2ccccc2)cc1 |  | mouse, male, spleen | oral, 80 mg/kg daily, 14 days | reference: body weight | relative organ weight | 0.31%
CN1CCN(c2ccc(Nc3nccc(-c4ccccc4)n3)cc2C(F)(F)F)CC1 |  | zebrafish embryos | 25 µM, 5 d |  | toxicity | 0 ± 7.4%
CC[C@H](C)[C@H](NC(=O)CN)C(=O)NCC(=O)N[C@@H](C)C(=O)N[C@H](C(=O)N[C@@H](CC(C)C)C(=O)N[C@@H](CCCCN)C(=O)N[C@H](C(=O)N[C@@H](CC(C)C)C(=O)N[C@H](C(=O)N[C@H](C(=O)NCC(=O)N[C@@H](CC(C)C)C(=O)N1CCC[C@H]1C(=O)N[C@@H](C)C(=O)N[C@@H](CC(C)C)C(=O)N[C@H](C(=O)N[C@@H](CO)C(=O)N[C@@H](Cc1c[nH]c2ccccc12)C(=O)N[C@H](C(=O)N[C@@H](CCCCN)C(=O)N[C@@H](CCCNC(=N)N)C(=O)N[C@@H](CCCCN)C(=O)N[C@@H](CCCNC(=N)N)C(=O)N[C@@H](CCC(N)=O)C(=O)N[C@@H](CCC(N)=O)C(N)=O)[C@@H](C)CC)[C@@H](C)CC)[C@@H](C)O)[C@@H](C)O)C(C)C)C(C)C | RP-HPLC |  | AOA-modified analogue |  | retention time | 23.2 min
O=[Se](=O)([O-])[O-].[Na+].[Na+] |  | rat | intraperitoneal, 1 mg/kg |  | apparent clearance (CL/F) | 4.72 mL/h/kg
CN1CC[C@@H](c2c(O)cc(O)c3c(=O)cc(-c4ccc(C(F)(F)F)cc4Cl)oc23)[C@@H]1CO | measured: Sepsis | AML | oral, 100 mg, intermittent dosing |  | patients with adverse event | 0%
COc1c(O)cc(O)c2c(=O)cc(-c3ccccc3)oc12 |  | Sprague Dawley rat, plasma | oral, 10 g lyophilized powder/kg, high dose |  | Vz/F | 3490 ± 2170 L/kg
CCN(CCO)CCCC(C)Nc1ccnc2cc(Cl)ccc12 (stereo not drawn) |  | newly diagnosed glioblastoma patients | oral, 400 mg/dose, grade 1, together with: radiotherapy plus temozolomide |  | blurred vision patients | 14%
COc1cc2c(Oc3ccc4[nH]c(C)cc4c3F)ccnc2cc1OCC1(N)CC1 |  | paediatric recurrent refractory sarcoma | 10 mg |  | Diarrhea incidence | 50%
CC(=O)c1c(C)c2cnc(Nc3ccc(C4CCN(CCS(C)(=O)=O)CC4)cn3)nc2n(C2CCCC2)c1=O |  | human, plasma | oral, 25 mg once daily, day 21, multiple doses |  | elimination rate constant | 3.33e-05 s⁻¹
C[C@@H](NC(=O)N1C(=O)[C@H](Cc2ccnc(N)c2)[C@H]1C(=O)O)C1CCCCC1 |  | healthy adult Chinese volunteers | continuous intravenous infusion, 1.5 mg/kg/h, 5-day infusion, CTCAE 5.0 grading |  | incidence of urine erythrocyte positive | 0%

A few entries again:
Structure (SMILES) | assay | test system | setting | scale | measurement | value
CC(C)C[C@@H]1NC(=O)[C@H](CCCCN)NC(=O)[C@H](CC(N)=O)NC(=O)[C@H](CCCNC(=N)N)NC(=O)[C@H]([C@@H](C)O)NC(=O)[C@@H]2CSSC[C@@H]3NC(=O)[C@H]([C@@H](C)O)NC(=O)CNC(=O)CNC(=O)[C@H](C(C)C)NC(=O)[C@@H]4CSSC[C@H](NC(=O)[C@H]([C@@H](C)O)NC(=O)[C@H](CSSC[C@H](NC(=O)[C@H](C(C)C)NC(=O)[C@@H]5CCCN5C1=O)C(=O)NCC(=O)N[C@@H](CCC(=O)O)C(=O)N[C@@H]([C@@H](C)O)C(=O)N4)NC(=O)CNC(=O)[C@@H]1CCCN1C(=O)[C@H]([C@@H](C)O)NC(=O)[C@H](CC(N)=O)NC3=O)C(=O)N[C@@H](CO)C(=O)N[C@@H](Cc1c[nH]c3ccccc13)C(=O)N1CCC[C@H]1C(=O)N[C@@H](C(C)C)C(=O)N2 | HPLC | water | 180 µM, 14 days, 37 °C, deamidation stability |  | remaining peptide | 98.8 ± 0.2%
Clc1ccc(-c2ccc(Cl)c(Cl)c2)cc1Cl |  | fresh water | 20 °C, S30-1 sampler, 30 µm |  | log K(PDMS-water) | 5.53 ± 0.06
